Measurements of several laboratories.
Numbered parts are unrelated; each lists some results of a single study. “And” joins repeats or separate records; there may be more than shown.
UniProt O60331, sequence (whole entry, looked up): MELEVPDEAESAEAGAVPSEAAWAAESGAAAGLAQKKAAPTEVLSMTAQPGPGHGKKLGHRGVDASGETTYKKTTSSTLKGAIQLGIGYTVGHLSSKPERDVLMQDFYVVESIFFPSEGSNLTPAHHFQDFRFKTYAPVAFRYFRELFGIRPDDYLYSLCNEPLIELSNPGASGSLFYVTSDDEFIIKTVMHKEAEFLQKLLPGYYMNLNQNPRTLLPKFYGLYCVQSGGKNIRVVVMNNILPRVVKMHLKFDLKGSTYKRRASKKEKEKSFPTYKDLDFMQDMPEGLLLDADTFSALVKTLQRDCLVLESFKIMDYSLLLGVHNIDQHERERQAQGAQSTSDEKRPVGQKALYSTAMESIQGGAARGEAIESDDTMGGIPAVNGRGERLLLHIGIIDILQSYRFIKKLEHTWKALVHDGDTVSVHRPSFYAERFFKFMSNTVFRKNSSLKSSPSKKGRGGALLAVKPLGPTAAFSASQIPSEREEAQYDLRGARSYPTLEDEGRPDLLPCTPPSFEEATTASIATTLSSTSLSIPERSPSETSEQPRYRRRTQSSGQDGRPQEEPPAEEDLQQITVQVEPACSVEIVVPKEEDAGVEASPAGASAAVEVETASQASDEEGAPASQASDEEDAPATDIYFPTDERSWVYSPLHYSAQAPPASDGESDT
UniProt Q13153, sequence (whole entry, looked up): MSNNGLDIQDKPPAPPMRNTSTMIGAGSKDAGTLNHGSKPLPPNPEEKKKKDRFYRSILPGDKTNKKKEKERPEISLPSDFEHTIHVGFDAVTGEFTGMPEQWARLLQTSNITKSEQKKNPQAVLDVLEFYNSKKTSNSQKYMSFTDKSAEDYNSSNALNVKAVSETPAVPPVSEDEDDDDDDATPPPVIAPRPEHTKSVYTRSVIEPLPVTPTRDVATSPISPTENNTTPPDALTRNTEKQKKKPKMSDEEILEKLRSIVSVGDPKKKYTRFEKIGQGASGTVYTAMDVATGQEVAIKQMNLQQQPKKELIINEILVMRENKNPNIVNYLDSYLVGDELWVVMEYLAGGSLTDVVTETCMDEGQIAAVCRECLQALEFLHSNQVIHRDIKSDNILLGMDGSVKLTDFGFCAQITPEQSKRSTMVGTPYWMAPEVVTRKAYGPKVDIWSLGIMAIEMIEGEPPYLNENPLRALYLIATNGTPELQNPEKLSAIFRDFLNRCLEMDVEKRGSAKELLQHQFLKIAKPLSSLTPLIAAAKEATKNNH
UniProt P10721, sequence (whole entry, unmodified, looked up): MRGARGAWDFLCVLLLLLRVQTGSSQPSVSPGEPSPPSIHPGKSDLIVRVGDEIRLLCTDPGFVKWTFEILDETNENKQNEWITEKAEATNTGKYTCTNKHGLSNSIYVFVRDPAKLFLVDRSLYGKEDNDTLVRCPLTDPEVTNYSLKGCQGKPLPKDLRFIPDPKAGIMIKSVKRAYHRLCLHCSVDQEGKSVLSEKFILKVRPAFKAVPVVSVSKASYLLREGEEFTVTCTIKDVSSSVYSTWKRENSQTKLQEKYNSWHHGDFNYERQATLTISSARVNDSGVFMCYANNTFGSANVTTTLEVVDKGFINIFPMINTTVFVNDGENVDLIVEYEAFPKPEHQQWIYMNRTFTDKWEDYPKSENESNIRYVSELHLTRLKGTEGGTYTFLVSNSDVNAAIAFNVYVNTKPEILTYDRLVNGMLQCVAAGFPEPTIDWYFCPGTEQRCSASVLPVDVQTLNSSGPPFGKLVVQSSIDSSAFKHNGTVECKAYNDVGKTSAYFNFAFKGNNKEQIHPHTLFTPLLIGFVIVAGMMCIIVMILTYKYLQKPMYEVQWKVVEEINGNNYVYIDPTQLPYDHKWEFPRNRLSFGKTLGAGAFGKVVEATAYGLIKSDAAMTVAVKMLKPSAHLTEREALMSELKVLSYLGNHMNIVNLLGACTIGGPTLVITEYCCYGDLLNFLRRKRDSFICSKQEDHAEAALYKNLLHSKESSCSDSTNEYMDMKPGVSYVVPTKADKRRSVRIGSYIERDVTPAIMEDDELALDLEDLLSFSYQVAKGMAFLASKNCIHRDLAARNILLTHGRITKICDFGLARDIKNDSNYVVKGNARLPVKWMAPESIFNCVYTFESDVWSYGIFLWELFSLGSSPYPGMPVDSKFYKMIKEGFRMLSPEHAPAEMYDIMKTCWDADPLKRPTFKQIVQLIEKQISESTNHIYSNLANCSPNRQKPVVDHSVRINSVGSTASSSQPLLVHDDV
UniProt P45985, sequence (whole entry, looked up): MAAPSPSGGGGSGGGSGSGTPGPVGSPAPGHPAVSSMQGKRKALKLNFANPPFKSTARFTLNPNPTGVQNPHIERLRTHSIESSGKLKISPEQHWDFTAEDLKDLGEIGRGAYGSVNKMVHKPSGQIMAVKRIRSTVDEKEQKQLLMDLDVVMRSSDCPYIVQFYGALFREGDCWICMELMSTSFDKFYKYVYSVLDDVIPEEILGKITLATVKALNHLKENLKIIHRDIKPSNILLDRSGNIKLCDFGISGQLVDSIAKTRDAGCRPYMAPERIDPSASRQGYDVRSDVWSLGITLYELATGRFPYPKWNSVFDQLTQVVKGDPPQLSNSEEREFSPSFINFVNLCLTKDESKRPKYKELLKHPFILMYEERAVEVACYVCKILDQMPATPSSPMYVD
UniProt P04629, sequence (whole entry, looked up): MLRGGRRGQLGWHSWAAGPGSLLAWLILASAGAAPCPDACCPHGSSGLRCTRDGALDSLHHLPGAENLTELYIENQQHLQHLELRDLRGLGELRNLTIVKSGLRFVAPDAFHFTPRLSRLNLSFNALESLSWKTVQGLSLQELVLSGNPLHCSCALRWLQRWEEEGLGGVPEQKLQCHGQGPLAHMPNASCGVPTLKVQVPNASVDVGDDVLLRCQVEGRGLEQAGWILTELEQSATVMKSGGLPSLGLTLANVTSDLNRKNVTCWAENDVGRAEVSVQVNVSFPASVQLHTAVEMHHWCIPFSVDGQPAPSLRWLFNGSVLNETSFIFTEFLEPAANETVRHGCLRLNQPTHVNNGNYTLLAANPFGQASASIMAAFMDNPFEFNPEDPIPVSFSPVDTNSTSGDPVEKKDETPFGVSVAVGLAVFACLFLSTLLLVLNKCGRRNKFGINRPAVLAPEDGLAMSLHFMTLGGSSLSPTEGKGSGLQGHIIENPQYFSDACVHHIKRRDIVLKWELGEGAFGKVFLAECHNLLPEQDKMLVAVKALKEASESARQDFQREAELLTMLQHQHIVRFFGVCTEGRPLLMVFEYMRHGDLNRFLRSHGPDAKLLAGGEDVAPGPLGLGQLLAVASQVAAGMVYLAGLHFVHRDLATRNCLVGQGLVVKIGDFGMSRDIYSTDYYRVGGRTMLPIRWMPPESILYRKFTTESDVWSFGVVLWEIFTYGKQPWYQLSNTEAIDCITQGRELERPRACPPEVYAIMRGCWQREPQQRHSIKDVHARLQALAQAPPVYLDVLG
UniProt O43318, sequence (whole entry, looked up): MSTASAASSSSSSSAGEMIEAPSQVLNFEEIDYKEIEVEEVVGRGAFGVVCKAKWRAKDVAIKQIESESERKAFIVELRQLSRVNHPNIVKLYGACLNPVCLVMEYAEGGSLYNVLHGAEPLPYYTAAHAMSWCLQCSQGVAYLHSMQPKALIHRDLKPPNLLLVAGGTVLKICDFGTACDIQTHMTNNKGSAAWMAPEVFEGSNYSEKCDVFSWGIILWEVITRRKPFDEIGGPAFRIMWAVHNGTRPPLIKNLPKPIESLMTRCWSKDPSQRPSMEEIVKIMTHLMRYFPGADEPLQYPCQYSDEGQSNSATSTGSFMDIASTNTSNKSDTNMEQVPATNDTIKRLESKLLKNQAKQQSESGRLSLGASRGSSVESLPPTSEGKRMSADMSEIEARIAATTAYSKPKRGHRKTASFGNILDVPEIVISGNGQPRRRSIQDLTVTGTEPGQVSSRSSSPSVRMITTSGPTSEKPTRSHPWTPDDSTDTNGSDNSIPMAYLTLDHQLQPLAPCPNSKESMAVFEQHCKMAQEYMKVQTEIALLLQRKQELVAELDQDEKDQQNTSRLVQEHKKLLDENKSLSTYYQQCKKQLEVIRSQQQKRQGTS
UniProt Q9HBY8, sequence (whole entry, looked up): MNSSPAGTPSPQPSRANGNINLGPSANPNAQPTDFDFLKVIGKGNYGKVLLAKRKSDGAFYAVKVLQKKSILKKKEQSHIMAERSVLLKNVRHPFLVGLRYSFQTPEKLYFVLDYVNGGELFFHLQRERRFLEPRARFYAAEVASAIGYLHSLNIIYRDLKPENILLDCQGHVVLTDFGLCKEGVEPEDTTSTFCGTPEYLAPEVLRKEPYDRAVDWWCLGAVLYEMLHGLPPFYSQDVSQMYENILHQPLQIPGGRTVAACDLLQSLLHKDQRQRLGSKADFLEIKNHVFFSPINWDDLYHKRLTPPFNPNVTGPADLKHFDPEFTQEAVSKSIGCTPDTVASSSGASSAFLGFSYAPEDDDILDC
UniProt Q08881, sequence (whole entry, looked up): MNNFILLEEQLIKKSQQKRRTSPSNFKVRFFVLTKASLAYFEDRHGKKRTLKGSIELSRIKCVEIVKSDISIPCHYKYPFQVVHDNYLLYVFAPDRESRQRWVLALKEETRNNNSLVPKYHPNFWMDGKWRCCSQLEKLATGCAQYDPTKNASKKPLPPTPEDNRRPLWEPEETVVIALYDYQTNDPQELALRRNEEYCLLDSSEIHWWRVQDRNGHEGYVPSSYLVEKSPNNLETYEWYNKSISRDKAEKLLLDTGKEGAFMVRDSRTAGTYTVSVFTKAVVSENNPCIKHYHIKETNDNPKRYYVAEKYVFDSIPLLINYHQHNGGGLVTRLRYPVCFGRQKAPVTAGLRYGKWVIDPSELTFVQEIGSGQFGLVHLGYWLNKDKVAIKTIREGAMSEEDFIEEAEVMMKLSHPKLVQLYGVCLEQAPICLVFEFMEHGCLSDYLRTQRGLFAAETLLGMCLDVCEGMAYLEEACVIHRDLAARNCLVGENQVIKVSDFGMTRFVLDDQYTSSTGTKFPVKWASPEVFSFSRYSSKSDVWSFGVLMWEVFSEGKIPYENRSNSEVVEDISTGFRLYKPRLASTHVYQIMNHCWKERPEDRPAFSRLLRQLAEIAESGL

Study 1
Cell line: mouse MPNST tumor cells
Technique: high-content immunofluorescence imaging
Item: nuclear SOX9
Tested at: 10 µM
Time: 12 h
Setting: mean of 2 replicates
Reference: DMSO control
Reading: higher = more nuclear SOX9
| Structure (SMILES) | nuclear SOX9 intensity |
| --- | --- |
| Cc1nnc(C(C)C)n1C1C[C@H]2CC[C@@H](C1)N2CC[C@H](NC(=O)C1CCC(F)(F)CC1)c1ccccc1 (stereo in doubt) | 83.7 % of DMSO and 91.7 % of DMSO |
| CN1C[C@H](Nc2cnn(C)c(=O)c2Br)C[C@H](c2ccccc2)C1 | 93.3 % of DMSO |
| COc1cc2c(cc1OC)-c1c/c(=N\c3c(C)cc(C)cc3C)n(C)c(=O)n1CC2 | 128 % of DMSO |

Study 2
Organism: Sarcocystis neurona
Read-out: parasite growth
Tested at: concentration not given
Setting: first screen
Reference: untreated
| SMILES | log2 fold change |
| --- | --- |
| O=C(N[C@H](CO)[C@H](O)c1ccc([N+](=O)[O-])cc1)C(Cl)Cl | -0.16 |
| O=C1c2c(O)cc(O)cc2OC(c2ccc(O)c(O)c2)C1O (centres unmarked) | -0.15 |
| Cc1cccc(CCN2CCC(C(=O)c3ccc(NS(C)(=O)=O)cc3)CC2)n1.Cl.Cl | -0.2 |

Study 3
Cell line: HaCaT
Tested at: 100 µM
Time: 60 h
| Structure (SMILES) | viability [%] |
| --- | --- |
| Oc1cc(O)cc(/C=C/c2ccc(O)c(O)c2)c1 | 129 |
| O=C(c1cc(Cc2n[nH]c(=O)c3ccccc23)ccc1F)N1CCN(C(=O)C2CC2)CC1 | 96.2 |
| OC[C@H]1O[C@@H](O[C@@H]2[C@@H](CO)OC(O)(CO)[C@H]2O)[C@H](O)[C@@H](O)[C@H]1O (mixture of isomers) | 136 |

Study 4
Compound: Cc1c[nH]c2nccc(Oc3c(F)cc(Nc4cc(Cl)nc(N)n4)cc3F)c12
Read-out: cell-free assay
Technique: competition with immobilised ligand
Tested at: 0.1 µM
| target | remaining binding [%] |
| --- | --- |
| FGR (Homo sapiens, UniProt P09769) | 100 |
| MAP3K7 (Homo sapiens, UniProt O43318) | 92 |
| Tyrosine-protein kinase JAK1, JH2 (JAK1, Homo sapiens, UniProt P23458) | 84 |
| PAK1 (Homo sapiens, UniProt Q13153) | 100 |
| MAP2K4 (Homo sapiens, UniProt P45985) | 99 |
| ITK (Homo sapiens, UniProt Q08881) | 81 |
| SGK2 (Homo sapiens, UniProt Q9HBY8) | 69 |
| NTRK1 (Homo sapiens, UniProt P04629) | 81 |
| MARK3 (Homo sapiens, UniProt P27448) | 74 |
| Tyrosine-protein kinase ABL1, phosphorylated (ABL1, Homo sapiens, UniProt P00519, Q252H) | 91 |
| KIT (Homo sapiens, UniProt P10721, D816H) | 95 |
| STK25 (Homo sapiens, UniProt O00506) | 100 |
| PIK3CA (Homo sapiens, UniProt P42336, M1043I) | 66 |
| MAP4K5 (Homo sapiens, UniProt Q9Y4K4) | 93 |
| LIM domain kinase 1 (LIMK1, Homo sapiens, UniProt P53667) | 87 |
| PIK3C3 (Homo sapiens, UniProt Q8NEB9) | 67 |
| PIK3CB (Homo sapiens, UniProt P42338) | 76 |
| MAP2K7 (Homo sapiens, UniProt O14733) | 67 |
| MAP3K6 (Homo sapiens, UniProt O95382) | 100 |
| PIP5K1C (Homo sapiens, UniProt O60331) | 78 |
| ERBB2 (Homo sapiens, UniProt P04626) | 99 |
| MAPK9 (Homo sapiens, UniProt P45984) | 93 |

Study 5
Target: PABPC1L2, full length, GST fusion (mouse, UniProt A0ABA7IW68)
Technique: RNAcompete
Form: RNA
Medium: in vitro
Tested at: 20 nM
Setting: 7-mer, probes averaged, single round
Reference: mean of 7-mers
Reading: higher = stronger binding
Residues (chain): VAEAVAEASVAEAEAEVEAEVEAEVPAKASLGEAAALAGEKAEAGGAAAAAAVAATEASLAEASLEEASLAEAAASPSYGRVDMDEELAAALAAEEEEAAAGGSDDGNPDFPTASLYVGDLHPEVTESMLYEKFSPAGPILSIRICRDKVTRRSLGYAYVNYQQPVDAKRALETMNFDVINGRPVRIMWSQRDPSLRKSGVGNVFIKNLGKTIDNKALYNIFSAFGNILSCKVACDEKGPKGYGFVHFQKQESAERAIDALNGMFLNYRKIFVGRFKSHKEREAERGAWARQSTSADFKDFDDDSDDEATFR
| Sequence | 7-mer Z-score |
| --- | --- |
| UUCACCG | -0.349 |
| GGUACGG | 0.178 |
| UUUUUAA | 0.0768 |
| AGCUCCG | -0.327 |
| AACCGAG | 0.00254 |
| CAUGGAA | 0.389 |
| ACAUGGU | -0.121 |
| AACUAAG | 0.276 |

Study 6
Structure (SMILES): CC(C)n1cnc(-c2ccc(F)cc2)c1-c1ncc(C(=O)Nc2ccc(N3CCN(C)CC3)cc2)[nH]1
| technique | item | species | route | dose | setting | patients with TEAE |
| --- | --- | --- | --- | --- | --- | --- |
| phase 2a trial |  | patients with idiopathic pulmonary fibrosis |  | 60 mg once daily | atopic dermatitis, grade 1 | 0% |
| phase 2a trial |  | idiopathic pulmonary fibrosis patients | oral | 30 mg once daily | GLDH increased, grade 5 | 0% |
|  | interferon gamma increased | idiopathic pulmonary fibrosis patients |  | 30 mg once daily |  | 0% |

Further values, each from its own experiment
| Structure (SMILES) | target or system | test | system | conditions | how to read | measurement | result |
| --- | --- | --- | --- | --- | --- | --- | --- |
| c1ccc(Oc2ccc(Nc3c4c(nc5ccccc35)CCC4)cc2)cc1 | Leishmania donovani | parasite killing | DD8, intracellular amastigotes | 40 µM, 24 h |  | inhibition | 100% |
| O=C(COc1ccc(Cl)cc1)NC1CCC(NC(=O)COc2ccc(Cl)cc2)CC1 (centres unmarked) | HEK293T ATF4-firefly luciferase reporter | integrated stress response, item: ATF4 |  | concentration not given | reference: DMSO | reporter signal | 72.7% and 84.3% and 60.8% and 69.6% and 67% and 64.3% and 88% and 69.8% |
| Cn1ccc2cc3c(cc21)CCN3C(=O)Nc1cccnc1 | DNA polymerase theta, ATPase domain (POLQ, Homo sapiens, UniProt O75417) | enzyme activity, inhibitor |  | 77 µM | reference: untreated | remaining activity | 100% |
| CCC(=O)OC(COC)c1ccccc1CS(N)(=O)=O (centres unmarked) |  |  | human, microsomes or S9 | 2 µM, 0.5 h |  | remaining compound | 80.1% |
| CN(C(=O)c1ccn2ncc(-c3ccc(C(N)=O)cc3)c2c1)c1ccc(C#N)cn1 | Cryptosporidium parvum | time-kill | HCT-8, nanoluciferase-expressing | 0.02743 µM, 4 h | reference: DMSO control | luminescence remaining | 83.8% and 87.8% |

A few entries again (study 4):
| target | remaining binding [%] |
| --- | --- |
| ITK (Homo sapiens, UniProt Q08881) | 81 |
| SGK2 (Homo sapiens, UniProt Q9HBY8) | 69 |
| NTRK1 (Homo sapiens, UniProt P04629) | 81 |
| MARK3 (Homo sapiens, UniProt P27448) | 74 |
| Tyrosine-protein kinase ABL1, phosphorylated (ABL1, Homo sapiens, UniProt P00519, Q252H) | 91 |
| KIT (Homo sapiens, UniProt P10721, D816H) | 95 |
